Experimental data of several laboratories.
Numbered parts are unrelated; each lists some results of a single study.
Chain of UniProt Q05655 (whole entry, looked up): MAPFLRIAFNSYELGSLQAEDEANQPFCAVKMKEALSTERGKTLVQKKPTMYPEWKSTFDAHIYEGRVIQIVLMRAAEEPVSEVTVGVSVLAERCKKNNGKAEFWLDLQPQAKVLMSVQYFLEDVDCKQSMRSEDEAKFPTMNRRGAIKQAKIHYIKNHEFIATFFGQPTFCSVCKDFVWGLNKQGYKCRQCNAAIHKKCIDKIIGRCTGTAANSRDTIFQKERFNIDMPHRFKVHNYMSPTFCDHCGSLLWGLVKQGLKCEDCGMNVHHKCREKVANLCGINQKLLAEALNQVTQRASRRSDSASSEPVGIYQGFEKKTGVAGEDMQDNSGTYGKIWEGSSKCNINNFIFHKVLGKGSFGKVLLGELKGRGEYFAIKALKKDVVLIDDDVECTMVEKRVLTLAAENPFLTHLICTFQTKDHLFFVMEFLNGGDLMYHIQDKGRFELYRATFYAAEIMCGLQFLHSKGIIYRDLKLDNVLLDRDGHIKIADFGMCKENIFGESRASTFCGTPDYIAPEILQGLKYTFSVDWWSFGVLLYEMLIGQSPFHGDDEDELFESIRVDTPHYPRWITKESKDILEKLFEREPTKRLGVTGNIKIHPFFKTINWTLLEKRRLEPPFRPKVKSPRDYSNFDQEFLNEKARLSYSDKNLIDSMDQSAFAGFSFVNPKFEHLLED
Chain of UniProt P48730 (whole entry, looked up): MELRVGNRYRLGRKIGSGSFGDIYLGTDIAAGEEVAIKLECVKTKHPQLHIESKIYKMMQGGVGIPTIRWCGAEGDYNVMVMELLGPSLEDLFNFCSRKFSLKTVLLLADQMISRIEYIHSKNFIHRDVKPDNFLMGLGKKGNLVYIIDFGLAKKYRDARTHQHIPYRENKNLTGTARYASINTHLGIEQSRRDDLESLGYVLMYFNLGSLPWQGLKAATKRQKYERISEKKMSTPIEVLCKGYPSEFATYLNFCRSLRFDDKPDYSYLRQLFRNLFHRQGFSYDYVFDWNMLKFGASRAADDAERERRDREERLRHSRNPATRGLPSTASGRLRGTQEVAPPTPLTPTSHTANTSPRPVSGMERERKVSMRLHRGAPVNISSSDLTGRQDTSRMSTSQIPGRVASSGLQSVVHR
Chain of UniProt P46734 (whole entry, looked up): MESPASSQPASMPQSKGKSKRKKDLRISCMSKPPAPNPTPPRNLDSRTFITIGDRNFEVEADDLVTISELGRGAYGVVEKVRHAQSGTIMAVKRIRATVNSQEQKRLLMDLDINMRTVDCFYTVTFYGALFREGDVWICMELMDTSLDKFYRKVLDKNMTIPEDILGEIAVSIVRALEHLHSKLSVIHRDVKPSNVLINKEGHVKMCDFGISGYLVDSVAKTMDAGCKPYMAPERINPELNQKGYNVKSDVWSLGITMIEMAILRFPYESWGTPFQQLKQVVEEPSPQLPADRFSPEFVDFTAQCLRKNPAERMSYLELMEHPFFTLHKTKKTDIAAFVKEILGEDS
Chain of UniProt Q04771 (whole entry, looked up): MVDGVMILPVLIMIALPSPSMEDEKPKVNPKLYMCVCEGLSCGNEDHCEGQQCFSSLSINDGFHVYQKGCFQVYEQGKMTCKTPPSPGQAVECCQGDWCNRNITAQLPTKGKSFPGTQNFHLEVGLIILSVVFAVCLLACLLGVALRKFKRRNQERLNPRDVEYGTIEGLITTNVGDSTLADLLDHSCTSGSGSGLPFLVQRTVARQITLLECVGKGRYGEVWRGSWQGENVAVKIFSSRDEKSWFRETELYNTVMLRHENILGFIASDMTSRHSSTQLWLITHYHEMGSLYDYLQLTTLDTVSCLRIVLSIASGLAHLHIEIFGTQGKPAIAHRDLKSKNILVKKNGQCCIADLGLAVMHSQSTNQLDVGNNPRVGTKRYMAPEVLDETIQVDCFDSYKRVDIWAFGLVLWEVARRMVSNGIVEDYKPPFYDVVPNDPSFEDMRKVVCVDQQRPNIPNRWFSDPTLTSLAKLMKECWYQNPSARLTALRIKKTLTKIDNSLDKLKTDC
Chain of UniProt P00519 (whole entry, unmodified, looked up): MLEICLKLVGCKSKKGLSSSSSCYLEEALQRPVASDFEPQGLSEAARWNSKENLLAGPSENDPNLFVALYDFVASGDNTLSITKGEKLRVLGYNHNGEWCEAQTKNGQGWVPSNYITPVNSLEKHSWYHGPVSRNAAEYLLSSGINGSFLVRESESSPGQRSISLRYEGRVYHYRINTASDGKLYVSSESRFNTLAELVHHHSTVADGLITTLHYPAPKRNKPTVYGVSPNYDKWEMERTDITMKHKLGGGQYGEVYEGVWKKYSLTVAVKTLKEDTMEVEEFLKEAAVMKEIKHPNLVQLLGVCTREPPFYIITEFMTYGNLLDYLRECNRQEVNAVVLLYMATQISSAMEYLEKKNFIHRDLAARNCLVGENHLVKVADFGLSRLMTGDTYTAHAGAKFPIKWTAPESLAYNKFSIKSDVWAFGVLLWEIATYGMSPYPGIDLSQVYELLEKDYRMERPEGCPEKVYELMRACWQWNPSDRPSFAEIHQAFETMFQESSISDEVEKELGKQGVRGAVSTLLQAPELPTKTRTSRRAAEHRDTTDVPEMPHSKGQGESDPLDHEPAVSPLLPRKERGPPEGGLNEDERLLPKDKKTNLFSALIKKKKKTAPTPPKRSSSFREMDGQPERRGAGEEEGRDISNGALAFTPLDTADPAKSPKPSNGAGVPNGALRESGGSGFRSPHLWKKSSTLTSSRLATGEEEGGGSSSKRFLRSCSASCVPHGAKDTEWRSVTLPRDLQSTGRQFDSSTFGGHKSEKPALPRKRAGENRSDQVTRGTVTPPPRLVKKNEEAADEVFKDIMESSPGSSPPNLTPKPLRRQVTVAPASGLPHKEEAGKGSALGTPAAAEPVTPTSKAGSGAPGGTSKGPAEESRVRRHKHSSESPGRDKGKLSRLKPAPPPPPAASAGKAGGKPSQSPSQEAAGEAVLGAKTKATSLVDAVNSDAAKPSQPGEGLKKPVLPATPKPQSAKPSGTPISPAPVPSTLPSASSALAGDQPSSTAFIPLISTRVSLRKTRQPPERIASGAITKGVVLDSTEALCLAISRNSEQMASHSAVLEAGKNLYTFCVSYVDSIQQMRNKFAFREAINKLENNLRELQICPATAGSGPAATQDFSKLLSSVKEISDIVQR
Chain of UniProt O00506 (whole entry, looked up): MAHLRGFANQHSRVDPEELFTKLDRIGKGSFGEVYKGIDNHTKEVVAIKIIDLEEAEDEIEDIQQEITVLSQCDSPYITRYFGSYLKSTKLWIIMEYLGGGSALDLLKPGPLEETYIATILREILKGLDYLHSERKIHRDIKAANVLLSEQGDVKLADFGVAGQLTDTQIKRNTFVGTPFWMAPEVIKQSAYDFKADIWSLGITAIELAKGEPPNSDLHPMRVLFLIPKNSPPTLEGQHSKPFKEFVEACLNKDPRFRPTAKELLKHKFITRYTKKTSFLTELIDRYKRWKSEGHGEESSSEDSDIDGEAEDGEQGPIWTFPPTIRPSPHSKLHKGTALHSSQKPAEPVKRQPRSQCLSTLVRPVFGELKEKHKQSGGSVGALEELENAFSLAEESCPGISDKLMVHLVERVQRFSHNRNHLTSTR
Chain of UniProt P11802 (whole entry, looked up): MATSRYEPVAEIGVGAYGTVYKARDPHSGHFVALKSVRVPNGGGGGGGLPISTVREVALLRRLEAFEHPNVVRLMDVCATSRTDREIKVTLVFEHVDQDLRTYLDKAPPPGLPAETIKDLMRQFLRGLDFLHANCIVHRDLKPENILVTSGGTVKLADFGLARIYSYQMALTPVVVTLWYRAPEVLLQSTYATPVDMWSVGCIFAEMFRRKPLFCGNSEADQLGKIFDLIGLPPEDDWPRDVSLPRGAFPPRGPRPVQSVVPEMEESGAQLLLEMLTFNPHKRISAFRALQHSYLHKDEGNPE

Block 1 — read-out: enzyme activity; mode: inhibitor; concentration: 0.5 µM; relative to: control; measurement: remaining activity
Target: SRSF protein kinase 2 (SRPK2, Homo sapiens, UniProt P78362)
Chain of UniProt P78362 (whole entry, looked up): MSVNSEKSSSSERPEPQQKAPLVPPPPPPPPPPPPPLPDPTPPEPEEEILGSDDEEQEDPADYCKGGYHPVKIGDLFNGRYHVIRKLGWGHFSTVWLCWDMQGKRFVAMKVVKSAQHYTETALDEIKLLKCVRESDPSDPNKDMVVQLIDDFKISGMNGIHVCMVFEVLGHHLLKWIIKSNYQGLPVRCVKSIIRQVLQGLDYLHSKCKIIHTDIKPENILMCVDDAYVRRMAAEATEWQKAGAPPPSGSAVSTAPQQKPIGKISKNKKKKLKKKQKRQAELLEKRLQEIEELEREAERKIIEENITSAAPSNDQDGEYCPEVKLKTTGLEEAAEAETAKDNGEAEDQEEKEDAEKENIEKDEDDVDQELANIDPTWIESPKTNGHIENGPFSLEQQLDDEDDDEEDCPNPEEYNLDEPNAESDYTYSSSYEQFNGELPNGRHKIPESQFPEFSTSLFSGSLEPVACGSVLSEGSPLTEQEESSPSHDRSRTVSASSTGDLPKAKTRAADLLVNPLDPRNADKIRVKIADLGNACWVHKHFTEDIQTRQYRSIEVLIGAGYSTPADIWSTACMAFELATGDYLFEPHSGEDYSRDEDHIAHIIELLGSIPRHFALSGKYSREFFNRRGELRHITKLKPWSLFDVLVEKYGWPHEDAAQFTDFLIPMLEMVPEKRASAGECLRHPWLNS
Cc1ccc(S(=O)(=O)/C=C/C#N)cc1: 108%
Cc1cc(Nc2cc(N3CCN(C)CC3)nc(Sc3ccc(NC(=O)C4CC4)cc3)n2)[nH]n1: 94.6%
O=C1NC(=O)c2c1c1c3ccccc3[nH]c1n1cncc21: 80.2%
c1ccc(-c2n[nH]c3c2oc2ccccc23)cc1: 95%
O=C1Nc2ccccc2/C1=C\c1c(Cl)[nH]c2ccccc12: 94.4%
Oc1cccc(-c2nc(N3CCOCC3)c3oc4ncccc4c3n2)c1: 97.3%
CCCNC(=O)Nc1ccc(Oc2ncnc3cc(OC)c(OC)cc23)cc1Cl: 91.1%
O=c1cc(N2CCOCC2)oc2c(-c3ccccc3)cccc12: 98.2%
CN(C)S(=O)(=O)c1ccc2c(c1)/C(=C/c1cc3c([nH]1)CCCC3)C(=O)N2: 50.3%
CCCCc1c(-c2ccc(OC)cc2)[nH]c2nccnc12: 105%
O=Nc1c(-c2c(O)[nH]c3cc(Br)ccc23)[nH]c2ccccc12: 63.9%
COc1ccc(COc2ccc(Cc3cnc(N)nc3N)cc2OC)cc1: 87.4%
O=C1Cc2c([nH]c3ccc(Br)cc23)-c2ccccc2N1: 98.9%

Block 2 — organism: Sarcocystis neurona; read-out: parasite activity; concentration: 10 µM; time: 96 h; measurement: activity class
Cc1nc2ccc(CN(C)c3ccc(C(=O)N[C@@H](CCC(=O)O)C(=O)O)s3)cc2c(=O)[nH]1: inactive
CN(CCOc1ccc(CC2SC(=O)NC2=O)cc1)c1ccccn1 (stereo not shown): inactive
CN(C)CCN(Cc1ccccc1)c1ccccn1: inactive
CC(C)(C)NC[C@H](O)COc1nsnc1N1CCOCC1: inactive
COc1ccc(-c2cc(=O)c3c(OC)c(OC)c(OC)c(OC)c3o2)cc1OC: inactive
C[C@@H]1C[C@H]2[C@@H]3CCC4=CC(=O)C=C[C@]4(C)[C@@]3(F)[C@@H](O)C[C@]2(C)[C@H]1C(=O)CO: inactive
CCCC(=O)Nc1ccc(OCC(O)CNC(C)C)c(C(C)=O)c1 (stereo not shown): inactive

Block 3 — concentration: 1 µM; measurement: remaining binding
SMILES: C[C@@H](c1cccc(C#N)c1)n1cc(Cl)cc(C(N)=O)c1=N
Casein kinase I isoform delta (CSNK1D, Homo sapiens, UniProt P48730); cell-free assay, competition with immobilised ligand: 100%
Serine/threonine-protein kinase 25 (STK25, Homo sapiens, UniProt O00506); cell-free assay, competition with immobilised ligand: 100%
Fibroblast growth factor receptor 3 (FGFR3, Homo sapiens, UniProt P22607); cell-free assay, competition with immobilised ligand: 100%
Serine/threonine-protein kinase PAK 1 (PAK1, Homo sapiens, UniProt Q13153); cell-free assay, competition with immobilised ligand: 100%
Activin receptor type-1 (ACVR1, Homo sapiens, UniProt Q04771); cell-free assay, competition with immobilised ligand: 96%
Cyclin-dependent kinase 4, with cyclin D3 (CDK4, Homo sapiens, UniProt P11802); cell-free assay, competition with immobilised ligand: 91%
Tyrosine-protein kinase ABL1, phosphorylated (ABL1, Homo sapiens, UniProt P00519, F317I); binding: 100%
Ephrin type-A receptor 1 (EPHA1, Homo sapiens, UniProt P21709); cell-free assay, competition with immobilised ligand: 77%
Vascular endothelial growth factor receptor 3 (FLT4, Homo sapiens, UniProt P35916); cell-free assay, competition with immobilised ligand: 89%
Tyrosine-protein kinase Blk (BLK, Homo sapiens, UniProt P51451); cell-free assay, competition with immobilised ligand: 85%
Serine/threonine-protein kinase SIK3 (SIK3, Homo sapiens, UniProt Q9Y2K2); cell-free assay, competition with immobilised ligand: 94%
Ribosomal protein S6 kinase alpha-1, N-terminal kinase domain (RPS6KA1, Homo sapiens, UniProt Q15418); cell-free assay, competition with immobilised ligand: 100%
Epidermal growth factor receptor (EGFR, Homo sapiens, UniProt P00533, del752-759); cell-free assay, competition with immobilised ligand: 100%
Dual specificity mitogen-activated protein kinase kinase 3 (MAP2K3, Homo sapiens, UniProt P46734); cell-free assay, competition with immobilised ligand: 67%
Protein kinase C delta type (PRKCD, Homo sapiens, UniProt Q05655); cell-free assay, competition with immobilised ligand: 77%

Block 4 — read-out: enzyme activity; mode: inhibitor; concentration: 10 µM; measurement: inhibition
Target: Calcium/calmodulin-dependent protein kinase type II subunit alpha (CAMK2A, Homo sapiens, UniProt Q9UQM7)
Chain of UniProt Q9UQM7 (whole entry, looked up): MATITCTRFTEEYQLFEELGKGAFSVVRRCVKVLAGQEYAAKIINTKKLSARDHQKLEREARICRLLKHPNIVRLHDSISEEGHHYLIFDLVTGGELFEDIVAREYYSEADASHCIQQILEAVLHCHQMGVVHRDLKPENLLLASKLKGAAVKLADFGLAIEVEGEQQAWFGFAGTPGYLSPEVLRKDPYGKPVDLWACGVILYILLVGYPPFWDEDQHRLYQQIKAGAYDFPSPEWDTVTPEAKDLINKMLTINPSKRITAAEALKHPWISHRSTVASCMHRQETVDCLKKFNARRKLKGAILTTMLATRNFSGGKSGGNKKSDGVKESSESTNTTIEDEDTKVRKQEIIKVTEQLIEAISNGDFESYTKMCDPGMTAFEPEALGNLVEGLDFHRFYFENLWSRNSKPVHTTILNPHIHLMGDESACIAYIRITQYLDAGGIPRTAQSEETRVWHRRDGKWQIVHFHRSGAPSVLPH
CN[C@@H]1[C@@H](O)[C@@H](O[C@@H]2[C@@H](O)[C@H](O[C@H]3O[C@H](CN)[C@@H](O)[C@H](O)[C@H]3O)[C@@H](N)C[C@H]2NC(=O)[C@@H](O)CN)OC[C@]1(C)O: -1%
O=C(/C=C/c1ccc(O)cc1)NCCc1c[nH]c2ccc(O)cc12: -17%
OCc1ccc(O[C@@H]2O[C@H](CO)[C@@H](O)[C@H](O)[C@H]2O)cc1: -3%
COc1cc2c(cc1O)CC[n+]1cc3c4c(ccc3cc1-2)OCO4: -11%
CC(=O)OP(=O)(O)O: 10%
